Experimental data of several laboratories.
A part holds a random share of what one study measured.

Set 1
Target: Histone acetyltransferase KAT6A, winged helix 1, GST fusion (KAT6A, Homo sapiens, UniProt Q92794, residues 1-85)
Technique: protein binding microarray
Form: double-stranded DNA, one strand shown
Medium: in vitro
Tested at: not given
Notes: 8-mer, flanks averaged, mean of 2 arrays, mostly near background
Baseline: not given
Direction: higher = stronger binding
Endpoint: E-score
Target sequence (chain): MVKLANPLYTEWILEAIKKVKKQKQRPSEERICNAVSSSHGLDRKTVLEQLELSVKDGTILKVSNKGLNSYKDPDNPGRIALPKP
CTAGTCGC: 0.049
CCGACCAC: -0.1
GTTGTTGA: -0.126
ACTCGTCG: -0.12
CGATACGA: -0.116
GCGCTGTA: 0.329
AGGGGAAC: -0.186
GGCGGTCA: 0.334
ACGGTTAG: 0.122
CAATACTA: -0.123
CGGAAGCC: 0.294
AGTCATTA: -0.109
ACCTGGAG: -0.142
ACGCTAAA: 0.126
AGAGCCCT: -0.111
AACAATGC: -0.0257
CGGCGTCC: 0.355
ACGAACCG: 0.0942

Set 2
Target: Ras GTPase-activating protein-binding protein 1, full length (G3BP1, Homo sapiens, UniProt Q13283)
Chain of UniProt Q13283 (whole entry, looked up): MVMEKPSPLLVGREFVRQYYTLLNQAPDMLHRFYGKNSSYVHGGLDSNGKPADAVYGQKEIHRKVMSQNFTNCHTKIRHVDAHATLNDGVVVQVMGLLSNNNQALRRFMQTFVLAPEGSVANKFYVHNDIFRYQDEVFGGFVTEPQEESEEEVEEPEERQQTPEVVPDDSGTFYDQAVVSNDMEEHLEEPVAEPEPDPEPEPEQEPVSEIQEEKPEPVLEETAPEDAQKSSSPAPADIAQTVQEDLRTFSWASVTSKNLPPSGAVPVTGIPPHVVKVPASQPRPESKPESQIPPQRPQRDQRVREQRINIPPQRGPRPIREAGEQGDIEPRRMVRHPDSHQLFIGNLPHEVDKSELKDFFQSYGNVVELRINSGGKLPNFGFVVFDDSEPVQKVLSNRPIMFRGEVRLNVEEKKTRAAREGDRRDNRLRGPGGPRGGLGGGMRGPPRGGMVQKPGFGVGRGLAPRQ
Technique: RNA Bind-n-Seq
Form: RNA
Medium: in vitro
Tested at: 200 nM
Notes: whole 134-nt RNA, ends assumed
Added: 150 mM LiCl
Baseline: input library
Direction: higher = stronger binding
Endpoint: log2 enrichment
All molecules: 7-deaza-guanosine replaces G
Shared flanks, not repeated: GGGAGUUCUACAGUCCGACGAUC … UGGAAUUCUCGGGUGUCAAGG
CCUGUGCUACACAUCGUAUGUACCGAAUCGGGAAAAAAGGGAAAAAAGGGGAAAAAAGGGAAAGUAUUAUGUUACGCCGUUCGGAUCUGC: 0.078
UCCUGUGCUACACAUCGUAUGUACCGAAUCGGGCCCCCCGGCCCCCCGGGGCCCCCCGGAAAGUAUUAUGUUACGCCGUUCGGAUCUGCA: 0.0278
CCUGUGCUACACAUCGUAUGUACCGAAUCGGCCCCCCCGGCCCCCCCGGGCCCCCCCGGGGAAAGUAUUAUGUUACGCCGUUCGGAUCUG: 0.252
UCCUGUGCUACACAUCGUAUGUACCGAAUCGGGGAAAAAGGGGAAAAAGGGGAAAGGGGAAAGUAUUAUGUUACGCCGUUCGGAUCUGCA: 0.0563
UCAAGUCCUGUGCUACACAUCGUAUGUACCGAAUCGGUUUUUGGUUUGGUUUGGAAAGUAUUAUGUUACGCCGUUCGGAUCUGCACUUCC: -0.566
ACCAUGCAGGUGGGCAUAAAUGGGAAGUGGGGCAAGGGGGGGAUAGGGAGGGGGGUAACACUUUGGGAACAGGUGGUCCCAGGUCGUUUC: 0.166
CCUCAAGUCCUGUGCUACACAUCGUAUGUACCGAAUCGGGAGGGGAGGAGGGGAAAGUAUUAUGUUACGCCGUUCGGAUCUGCACUUCCA: 0.396
CUGUGCUACACAUCGUAUGUACCGAAUCGGCCCCCCCGGGCCCCCCCGGGGCCCCCCCGGGGAAAGUAUUAUGUUACGCCGUUCGGAUCU: -0.338
UCAAGUCCUGUGCUACACAUCGUAUGUACCGAAUCGGGAAGGGAAGGGAAGGGGAAAGUAUUAUGUUACGCCGUUCGGAUCUGCACUUCC: -0.318
CAAGUCCUGUGCUACACAUCGUAUGUACCGAAUCGGGUUUGGGUUUGGGUUUGGGAAAGUAUUAUGUUACGCCGUUCGGAUCUGCACUUC: -0.448
UGGCCCUGGUGGCAUGCGGGGAGGAAGAGGUGGCCUCAGGGAUCGUGGUGGUCCCGGUGGAAUGUUCAGAGGUGGCCGUGGUGGAGACAG: 0.413

Set 3
Target: Prothrombin, mature alpha-thrombin (F2, Homo sapiens, UniProt P00734)
Technique: aptamer microarray, sandwich
Form: DNA with 2'F-ANA
Medium: in vitro
Tested at: 200 nM
Notes: whole 15-mer aptamer, many near background
Added: Cy3 exosite-II aptamer, 400 nM
Direction: higher = stronger binding
Endpoint: mean fluorescence intensity
Oligonucleotide: GGTTGGTGTGGTTGG
2'F-ANA at 4 6 8 14: 91.5 a.u.
2'F-ANA at 2 7 11 12 14: 259 a.u.
2'F-ANA at 9 10 12 13 15: 177 a.u.
2'F-ANA at 2 5 7 8 9 10 11 15: 50.5 a.u.
2'F-ANA at 1 3 4 5 9 13: 48 a.u.
2'F-ANA at 1 3 5 9: 63.1 a.u.
2'F-ANA at 1 2 6 8 9: 182 a.u.
2'F-ANA at 2 4 7 8 11 12 14 15: 161 a.u.
2'F-ANA at 4 5 8 10 12 13: 47.3 a.u.
2'F-ANA at 5 7 11 14 15: 46.4 a.u.
2'F-ANA at 1 4 5 9 10 14 15: 88 a.u.
2'F-ANA at 5 6 7 9 11 12 13 14: 47.6 a.u.
2'F-ANA at 1 2 5 6 9 10 11 13: 72.1 a.u.
2'F-ANA at 1 4 7 8 10: 50.3 a.u.
2'F-ANA at 1 2 4 5 6 8 10 11 12 14: 46.5 a.u.
2'F-ANA at 1 2 10 13 14 15: 52.3 a.u.
2'F-ANA at 2 4 5 6 9 10 14 15: 50.6 a.u.
2'F-ANA at 1 3 4 7 8 9 12 14: 114 a.u.
2'F-ANA at 1 2 5 7 9 11 12 14: 46.7 a.u.
2'F-ANA at 1 4 5 6 10 12 15: 50.7 a.u.
2'F-ANA at 1 3 6 7 8 10 15: 86.3 a.u.
2'F-ANA at 1 3 6 7 10 11 12 13 14 15: 63.2 a.u.
2'F-ANA at 1 3 4 5 6 7 8 10 14: 70 a.u.
2'F-ANA at 2 4 5 7 9 13: 53.4 a.u.

Set 4
Target: RNA binding protein fox-1 homolog 2, RRM domain, GST-SBP tag (RBFOX2, Homo sapiens, UniProt O43251-10, residues 100-194)
Technique: RNA Bind-n-Seq
Form: RNA
Medium: in vitro
Tested at: 365 nM
Notes: natural RNA segment, single round, ends assumed
Baseline: no-protein control
Direction: higher = stronger binding
Endpoint: RBNS enrichment (R)
Shared flanks, not repeated: GGGAGUUCUACAGUCCGACGAUC … UGGAAUUCUCGGGUGCCAA
Construct (chain): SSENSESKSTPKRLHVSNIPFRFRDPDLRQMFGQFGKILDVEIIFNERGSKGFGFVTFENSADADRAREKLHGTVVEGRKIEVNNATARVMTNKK
GCAGUUCUAGUUUUCCCAGUAGUUCCAUGGCAGGUUCAACCUCUCAGUGUCCUGAAAAAUGGAACCACCCACUAACCAUAUGCACUGGCUGCCCAGGUGGCUGCACUCCG: 0.935
AGCAAGGAUUUCUGAACACUAAAUCCAACGAGCCUUCACAGGGAAAGGAUAUUUGAGCAGAAUUCUUCAGAAUGAAUAGGAGUUAGCCAAGCAGAAAAGGCAAGAAGAGU: 1.86
CAGCAGCUAGUGGGAGAGCACCAGUUGGGCCUAAUCCUGCCUCAUCAUUCUUGGCAGGAAUCUGCAAAUGGAAACAUUGUGAGUAUCAGCAAUCUGGGAAGUGACAGGGU: 0.923
UAGUCCUACCACUAGAGGGCAUGGUACAGCCUGGCAAAAGUUAAAAGGGGUGUGGCAGCUCCCAUCAGGUCUGGAGGUGGUCUAUAAGCACAGUUGACAGUUGUGCAUUG: 0.619
AACUUUUGUGCUCCAGAAAAUUUUCUAUUCUGUAAGUCUGAGCGUAAAACUUCAAGUAUUAAAAUAAUUUGUACAUGUAGAGAGAAAAAUGACUUUUUCAAAAAUAUACA: 0.966
AGGGCCAAUGCACCCCCGCCUCACACACGCACUCCUUCUCCUCAAGGCCAGGGCAGAGGGCCUCACCGCCUCCCGGGCCUGCUGUCAGCUUGCAGCCCGGGGACAGAGGC: 0.948
GUGAAAAAAUACAAAUUAAGGACCUGUGUUCAUAGACAAUCUAAACUGUGUUUCUGAAGUUUGUGCACAUUUUUCUUCACUGUAAUGUUAUUUUACAGCUGUUUGUUAAA: 0.366
CUGAUUUCUUAUCUGGAAAUGGUACACUGAAUUCUCUGGGUGGCUUUCUUGUGGCCCCAUGGGAUGCAGCGUGGGGGCUGUCUGAAGGACCCUGCUUUUUCCAGGGGCCG: 0.407
GGCUUGUGCCACUCAAACACUAGUGAAAGGGUAUGUACAACCGCAACAUCAGGCCAGGACACCAUUUAUUUAACCAAGUAAUGGAGGAGAGUGAAACAUUUUCCAAGGCC: 0.209
GUCUCCUGUUGUUUCUGCCACAGGGACUUCCUUGGUCCCUUCAGGGAAGCCCUCAACUCAUCUCUGAACUUAGAAUCUCAUCCUUAGGGCUCAGAGAGUCCCAGCCCUAA: 0.348
UUUCUUUUGACAUUGCAACCGAAGGUCAUAAGGCCGCUAGCUCCGCUGGGACAGAGGCUUGAGAGAACUAACGGCUCGGUGCCUUCUCCCUGGUCUCAGACCAUCGUCUC: 0.511
GUAUUACAGAUGCCUUUUUUGUAGUUUUUUUUUUUUUUAUGUGAUCAAUUUUGACUUAAUGUGAUUACUGCUCUAUUCCAAAAAGGUUGCUGUUUCACAAUACCUCAUGC: 0.863

A few entries again (set 1):
AGGGGAAC: -0.186
CGGAAGCC: 0.294
ACGAACCG: 0.0942
AGAGCCCT: -0.111
